Measurements of several laboratories.
Several values in a cell are separate wells, animals, samples, runs or records. ± marks the error that the study gave.
ppa: Inorganic pyrophosphatase (ppa, Escherichia coli, UniProt P0A7A9)
Chain of UniProt P0A7A9 (whole entry, looked up): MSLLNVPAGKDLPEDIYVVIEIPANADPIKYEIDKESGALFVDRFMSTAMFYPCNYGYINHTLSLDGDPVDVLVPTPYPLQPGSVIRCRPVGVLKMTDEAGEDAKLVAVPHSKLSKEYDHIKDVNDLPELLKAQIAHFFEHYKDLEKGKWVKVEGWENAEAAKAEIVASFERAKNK
TDP1: Tyrosyl-DNA phosphodiesterase 1 (TDP1, Homo sapiens, UniProt Q9NUW8)
Chain of UniProt Q9NUW8 (whole entry, looked up): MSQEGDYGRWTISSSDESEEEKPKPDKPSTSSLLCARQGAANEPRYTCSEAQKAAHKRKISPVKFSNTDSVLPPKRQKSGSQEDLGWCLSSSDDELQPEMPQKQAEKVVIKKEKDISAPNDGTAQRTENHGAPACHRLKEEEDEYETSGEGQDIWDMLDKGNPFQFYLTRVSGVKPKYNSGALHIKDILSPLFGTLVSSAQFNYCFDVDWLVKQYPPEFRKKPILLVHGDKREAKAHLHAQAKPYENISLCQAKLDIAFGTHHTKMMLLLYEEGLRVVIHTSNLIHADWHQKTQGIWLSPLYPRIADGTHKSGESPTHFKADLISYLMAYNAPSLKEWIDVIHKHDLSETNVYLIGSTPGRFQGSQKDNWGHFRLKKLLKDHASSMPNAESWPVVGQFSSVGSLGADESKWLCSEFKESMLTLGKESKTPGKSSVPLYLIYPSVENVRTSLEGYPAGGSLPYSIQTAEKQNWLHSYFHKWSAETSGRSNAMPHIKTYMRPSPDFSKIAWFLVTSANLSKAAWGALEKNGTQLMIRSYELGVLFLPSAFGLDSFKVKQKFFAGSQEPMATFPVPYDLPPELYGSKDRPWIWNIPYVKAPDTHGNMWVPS

| SMILES | tested on | test | system | setting | how to read | measurement | result |
| --- | --- | --- | --- | --- | --- | --- | --- |
| Cc1cccc2c1N(C(=O)n1ccnn1)CC2 | Arabidopsis thaliana |  | kai2 mutant, seeds | 10 µM, 72 h |  | germination rate | 51.3% and 65.7% and 78% and 84% and 71.4% and 70.6% |
| CC(C)(C)NCC(SS(=O)(=O)O)c1ccccc1 (stereo not drawn) | Schistosoma mansoni | perfusion day 44 | infected Swiss Webster mice | 600 mg/kg single dose, dosed day 1 post-infection |  | liver weight | 2.96 g and 1.9 g and 1.98 g and 2.9 g |
| Fc1ccc2c(c1)c1nc3ccc(Br)cc3c-1cn2Cc1cn(-c2ccccc2I)nn1 | Giardia duodenalis trophozoites | UHPLC-Q-TOF-MS metabolomics, measured: glycochenodeoxycholic acid |  | IC50, 0.0185 h | reference: 0.25% DMSO | fold change | 1.58 |
| Cc1cc(C(=O)Nc2nc3cccc(C)c3n2[C@H]2CCCCN(C(=O)/C=C/CN(C)C)C2)ccn1 | Trypanosoma brucei brucei |  | Lister 427 | 0.069 µM, 6 h, kill kinetics |  | proliferation | 128% and 117% and 124% and 129% and 232% and 233% |
| Nc1nc(-c2ccc(Cl)cc2)nc2[nH]nc(Nc3cccc(F)c3)c12 | rhinovirus A2 | viral cytopathic effect | HeLa |  |  | IC50 | 2230 nM |
| CC(=O)O[C@@H]1[C@@H](OC(C)=O)[C@H](Sc2sc(C(=O)c3ccc(C)cc3)c(N)c2-c2nc3ccccc3s2)OC[C@H]1OC(C)=O | coxsackievirus B4 | plaque reduction |  | non-toxic dose NG, mean over three titres |  | viral reduction | 26.7% |
| C[C@@H]1C(=O)O[C@@H](C)/C=C/C=C\[C@@H](C)[C@@H]2C=C[C@@H]3C[C@@]4(C)O[C@H]4[C@@H](C)[C@H]3[C@@H]2C(=O)C(Cl)(Cl)C1=O | Staphylococcus aureus |  | MRSA clinical isolate | resistant: OXA,GEN |  | MIC | 0.1 µg/mL |
| C=C(NC(=O)c1csc(-c2nc3c(cc2O)-c2nc(cs2)C(=O)NC(C(C)O)C(=O)NC(=C(C)OC)c2nc(cs2)C(=O)NC2c4nc(cs4)C(=O)NC(COC(=O)c4c5c6c(cccc6n4O)COC(=O)C(OC4CC(C)(O)C(N(C)C)C(C)O4)C2OC5)c2nc-3cs2)n1)C(N)=O (stereo not drawn) | Staphylococcus aureus |  | ATCC 43300 MRSA | 2 x MIC, 3 h exposure |  | post-antibiotic effect | 1.44 ± 0.3 h |
| Cc1ccc(C(=O)c2sc(S)c(-c3nc4ccccc4s3)c2N)cc1 | coxsackievirus B4 | plaque reduction |  | non-toxic concentration |  | viral titre reduction | 20% |
| [2H]C([2H])([2H])C1(C([2H])([2H])[2H])NC(=O)N(c2ccc(F)c(C(C)(F)F)c2)C1=O | Schistosoma japonicum |  | adult, mouse | oral, single dose |  | ED50 | 6.3 mg/kg |
| Nc1nc(-c2ccccc2)nc2[nH]nc(Nc3ccccc3)c12 | rhinovirus A2 | viral cytopathic effect | HeLa |  |  | IC50 | 2440 nM |
| COC1C=COC2(C)Oc3c(C)c(O)c4c(c3C2=O)C2=NC3(CCN(CC(C)C)CC3)NC2=C(NC(=O)C(C)=CC=CC(C)C(O)C(C)C(O)C(C)C(OC(=O)Nc2cnccn2)C1C)C4=O (stereo not drawn) | Mycobacteroides abscessus | bacterial growth | subsp. massiliense 097 clinical isolate | rough, slow grower |  | IC90 | 313 nM |
| COc1ccc(OC)c(C2=Nn3c(nnc3C3CCCCC3)SC2)c1 | ppa | inhibitor, counter-screen, coupling enzyme alone |  |  |  | IC50 | > 30000 nM |
| CC(=O)OC[C@H]1O[C@@H](Sc2sc(C(=O)c3ccc(Br)cc3)c(N)c2-c2nc3ccccc3s2)[C@H](OC(C)=O)[C@@H](OC(C)=O)[C@H]1OC(C)=O | coxsackievirus B4 | plaque reduction |  | non-toxic dose NG, mean over three titres |  | viral reduction | 40% |
| O=C(O)c1ccc(Nc2c(-c3ccccc3)nc3ccc(CON=CC=Cc4cn(Cc5ccccc5)nn4)cn23)cc1 (mixture of isomers) | TDP1 | enzyme activity, inhibitor |  | 100 µM, unpurified compound |  | inhibition | 5.2% |
| C/C=C(/C)C(=O)O[C@@H]1C=C(C)CC[C@]2(O)[C@@H](C(C)C)CC(=O)[C@]12C | Helicobacter pylori | microbial growth, broth dilution |  | 3.9 µg/mL |  | inhibition | 0% |
| CCOC(=O)c1cc(-c2nc3ccccc3s2)c(=O)n(NS(=O)(=O)c2ccc(Cl)cc2)c1N | coxsackievirus B4 | viral replication, plaque | BGM | non-toxic dose, mean of three titres |  | plaque reduction | 0% |
| COc1c(C=NOCc2ccc3nc(-c4ccccc4)c(Nc4ccc(C(=O)O)cc4)n3c2)c(C)nn1C (mixture of isomers) | TDP1 | enzyme activity, inhibitor |  | 100 µM, unpurified compound |  | inhibition | -10.6% |

| SMILES | tested on | test | system | setting | how to read | measurement | result |
| --- | --- | --- | --- | --- | --- | --- | --- |
| CO[C@@H]1OC[C@@H](O)[C@H](O)[C@H]1O | Helicobacter pylori | microbial growth, broth dilution |  | 0.48 µg/mL |  | inhibition | 0% |
| Cc1ccc(-c2nc(N)c3c(Nc4ccc(Cl)cc4)n[nH]c3n2)cc1 | rhinovirus A2 | viral cytopathic effect | HeLa |  |  | IC50 | 2080 nM |
| CCCCCCCCCC(=O)N[C@@H](Cc1c[nH]c2ccccc12)C(=O)N[C@H](CC(N)=O)C(=O)N[C@@H](CC(=O)O)C(=O)N[C@@H]1C(=O)NCC(=O)N[C@@H](CCCNC(=O)OC2/C=C/CCCCC2)C(=O)N[C@@H](CC(=O)O)C(=O)N[C@H](C)C(=O)N[C@@H](CC(=O)O)C(=O)NCC(=O)N[C@H](CO)C(=O)N[C@@H]([C@H](C)CC(=O)O)C(=O)N[C@@H](CC(=O)c2ccccc2N)C(=O)O[C@@H]1C (stereo partly drawn) | Staphylococcus aureus | planktonic bacterial growth, isothermal microcalorimetry | MSSA | 1.5 µg/mL, 24 h, 37 °C |  | peak heat flow | 0 µW |
| CCCCCC[N+](C)(C)CCCCCCCCOc1cc(OCCCCCCCC[N+](C)(C)CCCCCC)cc(OCCCCCCCC[N+](C)(C)CCCCCC)c1.[Br-].[Br-].[Br-] | Enterococcus faecalis |  | OG1RF |  |  | MIC | 1 µM |
| FC(F)(F)c1cccc(CNc2nc(NC3CCN(Cc4ccccc4)CC3)c3nc[nH]c3n2)c1 | Cryptococcus neoformans | RNA-seq, measured: TEP1 (CNAG_04833) mRNA |  | 48 µg/mL, 3 h | reference: untreated wild type | log2 fold change | -0.468 |
| CC=C(C)C(=O)OC1CC2C(C=C(C)C3C(OC(C)=O)CC(=O)C13C)OC(=O)C2C (stereo not drawn) | Helicobacter pylori | microbial growth, broth dilution |  | 0.98 µg/mL |  | inhibition | 0% |
| CC(C)[C@@H]1NC(=O)[C@@H](CCCNC(=N)N)NC(=O)[C@H]([C@@H](C)O)NC(=O)[C@@H](CCCN)NC(=O)[C@H](Cc2ccc(F)c(F)c2)NC(=O)[C@@H](Cc2ccccc2)NC1=O | Balamuthia mandrillaris | parasite growth, ATP luminescence |  |  |  | IC90 | > 20000 nM |
| CC1C=CC=CC(C)C2C=CC3CC(C)(O)C(Cl)C(C)C3C2C(=O)C(Cl)(Cl)C(=O)C(C)C(=O)O1 (stereo not drawn) | Staphylococcus aureus |  | MSSA clinical isolate | PEN ERY TET resistant |  | MIC | 0.1 µg/mL |
| O=C(CCCc1cn(C[C@H]2O[C@@H]3O[C@H]4[C@H](O)[C@@H](O)[C@@H](O[C@H]5[C@H](O)[C@@H](O)[C@@H](O[C@H]6[C@H](O)[C@@H](O)[C@@H](O[C@H]7[C@H](O)[C@@H](O)[C@@H](O[C@H]8[C@H](O)[C@@H](O)[C@@H](O[C@H]9[C@H](O)[C@@H](O)[C@@H](O[C@H]2[C@H](O)[C@H]3O)O[C@@H]9Cn2cc(CCCC(=O)N[C@H]3CCOC3=O)nn2)O[C@@H]8Cn2cc(CCCC(=O)N[C@H]3CCOC3=O)nn2)O[C@@H]7Cn2cc(CCCC(=O)N[C@H]3CCOC3=O)nn2)O[C@@H]6Cn2cc(CCCC(=O)N[C@H]3CCOC3=O)nn2)O[C@@H]5Cn2cc(CCCC(=O)N[C@H]3CCOC3=O)nn2)O[C@@H]4Cn2cc(CCCC(=O)N[C@H]3CCOC3=O)nn2)nn1)N[C@H]1CCOC1=O | Escherichia coli | LuxR reporter, antagonist | DH5α sensor strain | 200 µM, added: OHHL 200 nM |  | inhibition | 56 ± 1% |
| CC(=O)OC[C@H]1O[C@@H](Sc2sc(C(=O)c3ccc(C)cc3)c(N)c2-c2nc3ccccc3s2)[C@H](OC(C)=O)[C@@H](OC(C)=O)[C@@H]1OC(C)=O | human adenovirus 7 | plaque reduction |  | non-toxic dose NG, mean over three titres |  | viral reduction | 16.7% |
| CC(=O)C1=C(c2ccc(OC(F)F)cc2)N(C(C)=O)n2cnnc2S1 | ppa | inhibitor, counter-screen, coupling enzyme alone |  |  |  | IC50 | 46100 nM |
| Cc1ccc(S(=O)(=O)Nn2c3c(cc(-c4nc5ccccc5s4)c2=O)CCCCCC3)cc1 | human adenovirus 7 | viral replication, plaque | HEp-2 | non-toxic dose, mean of three titres |  | plaque reduction | 53.3% |
| CCCCCCCCCCn1cc[n+](CCCCOc2cc(OCCCC[n+]3ccn(CCCCCCCCCC)c3)cc(OCCCC[n+]3ccn(CCCCCCCCCC)c3)c2)c1.[Br-].[Br-].[Br-] | Enterococcus faecalis |  | OG1RF |  |  | MIC | 1 µM |
| CC(=O)OC[C@H]1O[C@@H](Sc2sc(C(=O)c3ccc(Cl)cc3)c(N)c2-c2nc3ccccc3s2)[C@H](OC(C)=O)[C@@H](OC(C)=O)[C@@H]1OC(C)=O | coxsackievirus B4 | plaque reduction |  | non-toxic dose NG, mean over three titres |  | viral reduction | 23.3% |
| Cc1ccc(-c2nc(N)c3c(Nc4ccc(F)cc4)n[nH]c3n2)cc1F | rhinovirus A2 | viral cytopathic effect | HeLa |  |  | IC50 | 2550 nM |
| OC[C@H]1O[C@@H]2O[C@H]3[C@H](O)[C@@H](O)[C@@H](O[C@H]4[C@H](O)[C@@H](O)[C@@H](O[C@H]5[C@H](O)[C@@H](O)[C@@H](O[C@H]6[C@H](O)[C@@H](O)[C@@H](O[C@H]7[C@H](O)[C@@H](O)[C@@H](O[C@H]1[C@H](O)[C@H]2O)O[C@@H]7CO)O[C@@H]6CO)O[C@@H]5CO)O[C@@H]4CO)O[C@@H]3CO | Escherichia coli | LuxR reporter, antagonist | DH5α sensor strain | 100 µM, added: OHHL 200 nM |  | inhibition | 2 ± 1% |
| CC(=O)O[C@@H]1[C@@H](OC(C)=O)[C@H](Sc2sc(C(=O)c3ccc(Br)cc3)c(N)c2-c2nc3ccccc3s2)OC[C@@H]1OC(C)=O | coxsackievirus B4 | plaque reduction |  | non-toxic dose NG, mean over three titres |  | viral reduction | 40% |
| Nc1nc(-c2ccccc2)nc2[nH]nc(Nc3ccc(O)cc3)c12 | rhinovirus A2 | viral cytopathic effect | HeLa |  |  | IC50 | 99300 nM |

For quick reference, copied from above:
| SMILES | tested on | test | system | setting | how to read | measurement | result |
| --- | --- | --- | --- | --- | --- | --- | --- |
| CC(=O)OC[C@H]1O[C@@H](Sc2sc(C(=O)c3ccc(Br)cc3)c(N)c2-c2nc3ccccc3s2)[C@H](OC(C)=O)[C@@H](OC(C)=O)[C@H]1OC(C)=O | coxsackievirus B4 | plaque reduction |  | non-toxic dose NG, mean over three titres |  | viral reduction | 40% |
| OC[C@H]1O[C@@H]2O[C@H]3[C@H](O)[C@@H](O)[C@@H](O[C@H]4[C@H](O)[C@@H](O)[C@@H](O[C@H]5[C@H](O)[C@@H](O)[C@@H](O[C@H]6[C@H](O)[C@@H](O)[C@@H](O[C@H]7[C@H](O)[C@@H](O)[C@@H](O[C@H]1[C@H](O)[C@H]2O)O[C@@H]7CO)O[C@@H]6CO)O[C@@H]5CO)O[C@@H]4CO)O[C@@H]3CO | Escherichia coli | LuxR reporter, antagonist | DH5α sensor strain | 100 µM, added: OHHL 200 nM |  | inhibition | 2 ± 1% |
| COc1ccc(OC)c(C2=Nn3c(nnc3C3CCCCC3)SC2)c1 | ppa | inhibitor, counter-screen, coupling enzyme alone |  |  |  | IC50 | > 30000 nM |
| CC(C)(C)NCC(SS(=O)(=O)O)c1ccccc1 (stereo not drawn) | Schistosoma mansoni | perfusion day 44 | infected Swiss Webster mice | 600 mg/kg single dose, dosed day 1 post-infection |  | liver weight | 2.96 g and 1.9 g and 1.98 g and 2.9 g |
